Published values pooled from the literature.
Protocols differ between the studies behind these lines. Several values in a cell are separate wells, animals, samples, runs or records.
Target: Protein kinase C theta type (PRKCQ, Homo sapiens, UniProt Q04759)

Compound	assay	setting	scale	quantity	value
C=CC(=O)N1CCc2ccc(-n3c(=O)ccc4cnc5ccc(-c6cnn(C)c6)cc5c43)cc21	KINOMEscan	1 µM	baseline: DMSO control	remaining binding	100%
Nc1ncc(-c2cc(-c3cnn(CC(F)(F)F)c3)ncc2F)nc1C(=O)NC1CNCC(F)C1 (stereo not shown)	enzyme activity	1 µM	baseline: DMSO control	remaining activity	87.2%
C=CC(=O)N1Cc2nc(-c3cc(-c4cc(Cl)cnc4Cl)c(F)cc3F)n(-c3ccncn3)c2C1	cell-free assay	1 µM	–	inhibition	2%
CN1CCN(Cc2ccc(-c3ccc(CO[C@H]4CCC[C@@H]4NC(=O)c4cc(-c5cnn(C)c5)cnc4N)cc3)cc2)CC1	enzyme activity, inhibitor	0.1 µM	–	inhibition	8%
CC(C)=CC1OC(C)(C)C2C=C3C(=O)C(Cl)=CC(O)C3C3C(O)C4OC4C(=O)C132 (stereo not shown)	cell-free assay, competition with immobilised ligand	10 µM	–	remaining binding	90%
CN1CC[C@@H](COc2cnc(C#N)cc2-c2ccn3nc(NC(=O)C4CC4)cc3c2)C1	enzyme activity, inhibitor	1 µM	–	inhibition	-8%
O=C=[N][Ru-4]123([n]4c5ccc(O)cc5c5c6c(c7cc(F)c[n+]1c7c54)C(=O)NC6=O)[S+]1CC[S+]2CC[S+]3CC1 (stereo not shown)	enzyme activity	100 nM, human enzyme, added: 10 µM ATP	baseline: untreated	remaining activity	42%
COCC12C(=O)NC3C4(C(OC)CC1O)C1CC5(O)C(OC)C(O)C(OC(C)=O)(C1C5OC(=O)c1ccccc1)C3(O)C(OC)C24 (stereo not shown)	kinase activity, inhibitor, ProQinase kinase profiling	25 µM	baseline: control	remaining activity	129% and 103%
Cc1cnc2nc1Nc1cccc(c1)COC/C=C/COCc1cc(ccc1OCCN1CCOCC1)N2	binding	0.1 µM	–	remaining binding	100%
COc1ccc(NC(=O)Nc2ccc3c(c2)C(=O)N(C(C)CO)CC(C)C(CN(C)Cc2ccc4c(c2)OCO4)O3)cc1 (stereo not shown)	kinase activity, KinaseProfiler	0.03 µM, species human	baseline: control	remaining activity	85%
Cc1cccc(O[C@H]2CCC[C@@H](C(C)CNCc3ccncc3)C2)c1 (relative stereo)	enzyme activity	1 µM	–	inhibition	0%
CCN1CCN(Cc2ccc(C(=O)Nc3ccc(C)c(NCc4cnc5[nH]ccc5c4OC)c3)cc2C(F)(F)F)CC1	binding, competition with immobilised ligand	1 µM	–	remaining binding	100%
C=CC(=O)Nc1cccc(-c2cnc3[nH]cc(C(=O)NC(C)(C)C)c3n2)c1	kinase activity	0.1 µM	–	inhibition	13%
Cc1ccc(-c2c(/C=C(\C#N)C(=O)NC(C)C)n(CCCO)c3ncnc(N)c23)cc1	cell-free assay, competition with immobilised ligand	1 µM	–	remaining binding	100%
NC(=O)C[C@H]1CCc2sc3ncnc(O[C@H]4CC[C@H](N5CCOCC5)CC4)c3c21	enzyme activity, inhibitor	10 µM	–	inhibition	-22%
CNC(=O)C[C@H](Cc1ccc(C#N)cc1)NC(=O)c1cc(-c2ccc(CN[C@H](C)c3ccc(C)cc3)o2)ccc1Cl	enzyme activity, inhibitor	1 µM	–	activity vs control	112%

Some of these lines once more:
Compound	assay	setting	scale	quantity	value
Nc1ncc(-c2cc(-c3cnn(CC(F)(F)F)c3)ncc2F)nc1C(=O)NC1CNCC(F)C1 (stereo not shown)	enzyme activity	1 µM	baseline: DMSO control	remaining activity	87.2%
C=CC(=O)N1Cc2nc(-c3cc(-c4cc(Cl)cnc4Cl)c(F)cc3F)n(-c3ccncn3)c2C1	cell-free assay	1 µM	–	inhibition	2%
